Published values gathered from unrelated publications.
Every numbered part comes from another study and shows a few of its results, in no order.

Block 1
Target: Max dimerization protein 1, bHLH-zipper, MAX partner unstated (MXD1, Homo sapiens, UniProt Q05195, residues 56-136)
Method: protein-binding microarray
Molecule type: double-stranded DNA, one strand shown
Matrix: in vitro
Concentration: not given
Notes: k-mer, scored over probes, only values ≥0.25
Direction: higher = stronger binding
Residues (chain): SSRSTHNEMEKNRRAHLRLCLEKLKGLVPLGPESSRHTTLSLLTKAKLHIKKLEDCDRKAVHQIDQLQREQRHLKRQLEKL
| Sequence | E-score |
| --- | --- |
| ACACGTGG | 0.491 |
| CGCATGGC | 0.415 |
| ACATGGTA | 0.326 |
| CCCCACTC | 0.257 |
| CGTGGTAC | 0.351 |
| AACCGCGT | 0.277 |
| GCACGTGA | 0.477 |
| CACCCACG | 0.406 |
| ACATGGCA | 0.293 |
| GGGTGGGA | 0.307 |
| AAAACACA | 0.26 |
| CACGCCCG | 0.291 |
| CCCCCGCA | 0.342 |
| AAGCACGC | 0.36 |
| CCACGGGG | 0.35 |
| CCCTCCCG | 0.266 |

Block 2
Target: Sal-like protein 4, full length isoform B (SALL4, Homo sapiens, UniProt Q9UJQ4-2, residues 1-616)
Method: universal PBM
Molecule type: double-stranded DNA, one strand shown
Matrix: in vitro
Concentration: not given
Notes: 8-mer, flanks averaged, mean of replicates
Direction: higher = stronger binding
| Sequence | E-score |
| --- | --- |
| ATGCTACA | 0.136 |
| ATATGCGA | 0.239 |
| CGACCGGA | -0.376 |
| CGACCTAA | 0.0357 |
| CTGGATTC | -0.102 |
| CGTCTAGA | -0.0617 |
| GGCCTGGA | -0.286 |
| GTTCTTAA | 0.0461 |
| GCGGGTCA | -0.223 |
| CTTAATAC | 0.216 |
| AATACACT | 0.28 |
| CAAGGTCG | -0.164 |
| AACATGAG | 0.143 |
| CTTGTGAC | -0.0957 |
| TACCATGA | 0.133 |

Block 3
Target: Prothrombin, mature alpha-thrombin (F2, Homo sapiens, UniProt P00734)
Method: aptamer microarray, sandwich
Molecule type: DNA with 2'F-ANA
Matrix: in vitro
Concentration: 200 nM
Notes: whole 15-mer aptamer, many near background
With: Cy3 exosite-II aptamer, 400 nM
Direction: higher = stronger binding
Sequence: GGTTGGTGTGGTTGG
| Modification | mean fluorescence intensity |
| --- | --- |
| 2'F-ANA at 4 5 6 9 10 12 13 15 | 230 a.u. |
| 2'F-ANA at 3 4 7 8 10 12 13 14 | 240 a.u. |
| 2'F-ANA at 1 2 5 8 14 15 | 83.2 a.u. |
| 2'F-ANA at 3 4 5 10 13 14 | 47.8 a.u. |
| 2'F-ANA at 3 5 6 7 13 15 | 75 a.u. |
| 2'F-ANA at 1 5 6 7 12 | 103 a.u. |
| 2'F-ANA at 3 4 5 6 7 8 10 11 13 15 | 50 a.u. |
| 2'F-ANA at 2 3 7 10 11 12 14 | 313 a.u. |
| 2'F-ANA at 1 3 4 7 8 10 11 12 13 | 68 a.u. |
| 2'F-ANA at 1 2 5 7 8 10 13 14 | 46.7 a.u. |
| 2'F-ANA at 2 3 4 5 8 9 12 14 | 75.8 a.u. |
| 2'F-ANA at 1 3 5 6 7 8 13 14 15 | 47.7 a.u. |
| 2'F-ANA at 2 3 4 6 7 11 12 14 15 | 233 a.u. |
| 2'F-ANA at 2 3 4 5 6 7 8 9 10 11 12 13 14 15 | 65.3 a.u. |
| 2'F-ANA at 1 6 7 9 10 11 12 14 15 | 51 a.u. |
| 2'F-ANA at 1 3 4 6 9 10 11 12 15 | 101 a.u. |

Mixed results
| Molecule | target | test | test system | conditions | how to read | measurement | result |
| --- | --- | --- | --- | --- | --- | --- | --- |
| PhoQ, residues 284 288 289 292 302 303 SMMNNA | PhoP, residues 12 14 15 18 19 TPLRH (Escherichia coli, UniProt P23836) | Sort-seq, measured: YFP reporter | E. coli | PhoQ-PhoP variant library, with: 10 µM Mg2+ | relative to: high Mg2+ state, higher = stronger signaling | fold induction | 2.01 |

Excerpt of the above (block 1):
| Sequence | E-score |
| --- | --- |
| CCCCCGCA | 0.342 |
| ACACGTGG | 0.491 |
| AACCGCGT | 0.277 |
| GCACGTGA | 0.477 |
| CCCTCCCG | 0.266 |
| CACCCACG | 0.406 |
| CGCATGGC | 0.415 |
